# Measured values of several laboratories.
# Every numbered part comes from another study and shows a few of its results, in no order.

# Set 1 — technique: RNA Bind-n-Seq; molecule type: RNA; sample: in vitro; tested at: 200 nM; setting: whole 134-nt RNA, ends assumed; with: 150 mM KCl; relative to: input library; reading: higher = stronger binding
# Target: Ras GTPase-activating protein-binding protein 1, full length (G3BP1, Homo sapiens, UniProt Q13283)
# Chain of UniProt Q13283 (whole entry, looked up): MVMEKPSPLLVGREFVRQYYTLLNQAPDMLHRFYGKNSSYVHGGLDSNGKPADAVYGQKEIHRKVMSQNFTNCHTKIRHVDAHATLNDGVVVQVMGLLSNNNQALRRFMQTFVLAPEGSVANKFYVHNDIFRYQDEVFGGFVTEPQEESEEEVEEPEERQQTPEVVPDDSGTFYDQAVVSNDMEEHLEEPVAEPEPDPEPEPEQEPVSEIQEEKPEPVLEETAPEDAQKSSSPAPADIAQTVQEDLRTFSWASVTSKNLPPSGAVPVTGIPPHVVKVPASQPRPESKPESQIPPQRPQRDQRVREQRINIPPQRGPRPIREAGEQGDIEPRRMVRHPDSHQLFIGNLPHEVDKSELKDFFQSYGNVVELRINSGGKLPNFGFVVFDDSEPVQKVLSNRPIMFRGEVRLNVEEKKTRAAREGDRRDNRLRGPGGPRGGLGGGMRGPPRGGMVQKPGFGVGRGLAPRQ
# All sequences stand within: GGGAGUUCUACAGUCCGACGAUC … UGGAAUUCUCGGGUGUCAAGG
Sequence,log2 enrichment
UGCUGCUUUCUGCCUUGGUGGCAGGCAGAGAACUGUCUCGUACUAGAAUUCAAGGAGGAAAGAAGAAGAAAUAAAAGAAGCUGCUCCAUU,-1.31
ACCAUGCAGGUGGGCAUCUUUGGGAAGUGGGGCAAGAGGGGGAUAGGGAGGGGGGUAACACUUUGGGAACAGGUGGUCCCAGGUCGUUUC,1.14
CCUGUGCUACACAUCGUAUGUACCGAAUCGGGCCCCCCGGGGCCCCCCGGGGCCCCCCGGAAAGUAUUAUGUUACGCCGUUCGGAUCUGC,-0.497
AAGUCCUGUGCUACACAUCGUAUGUACCGAAUCGGGUUUGGGUUUUUGGGAAAGGGAAAGUAUUAUGUUACGCCGUUCGGAUCUGCACUU,0.0872
UGCUGAAGCUCACACCCGUGGACCACCCAGACUGCCUGCCGCUACAGGAUGCCCUCCGCAUCUCCCAGGACUUCUUUCCGGCAUCAGUGU,-0.334
CCUCAAGUCCUGUGCUACACAUCGUAUGUACCGAAUCGGUUUGGUGGUUUGGAAAGUAUUAUGUUACGCCGUUCGGAUCUGCACUUCCAG,-0.336
UGUGAGAUUAAACUUGCCCCCAAACGAUCUCGUUUGGAGACUAGAGCUGGAGAAGAAGAUGAAGGAGAAGAGGAUUCUGAUUCUGAUUAU,0.0844
CUCAAGUCCUGUGCUACACAUCGUAUGUACCGAAUCGGAAAAAGGUGGAAAGGAAAGUAUUAUGUUACGCCGUUCGGAUCUGCACUUCCA,-0.496
UGGCCCUGGUGGCAUGCGGGGAGGAAGAGGUGGCGUCAUGGAUCGUGGUGGUCCCGGUGGAAUGUUCAGAGGUGGCCGUGGUGGAGACAG,0.715
AAGUCCUGUGCUACACAUCGUAUGUACCGAAUCGGGGAAAGGGGAAAGGGAAAGGGAAAGUAUUAUGUUACGCCGUUCGGAUCUGCACUU,0.312
UAACUUUAGAGGAGGAUCUGAUGGAUAUGGCAGUGGACGUGGAUUUGGGGAUGGCUAUAAUGGGUAUGGAGGAGGACUUGGAGGUGGCAA,0.178
ACCAUGCAGGUGGGCAUCUUUGGGAAGUGGGGCAAGUGGGGGAUAGGGAGGGGGGUAACACUUUGGGAACAGGUGGUCCCAGGUCGUUUC,1.07
UGUGCUACACAUCGUAUGUACCGAAUCGGGGAAAAAAAGGGGAAAAAAAGGGAAAAAAAGGGAAAGUAUUAUGUUACGCCGUUCGGAUCU,-0.549
GCAGGAAGUAAAAACAAAUGGAAAUGCUUCGGAUAGUGGCAGGGGUGGGGGUUGCUACGGAAAGGGUGGGAUGGGAGUGGGUAAAGAGUU,0.812

# Set 2 — technique: protein binding microarray; molecule type: double-stranded DNA, one strand shown; sample: in vitro; tested at: not given; relative to: not given; reading: higher = stronger binding
# Target: Histone acetyltransferase KAT6A, both winged helices, GST fusion (KAT6A, Homo sapiens, UniProt Q92794, residues 1-181)
# Setting: 8-mer, flanks averaged, mean of 2 arrays, mostly near background
# Target sequence (chain): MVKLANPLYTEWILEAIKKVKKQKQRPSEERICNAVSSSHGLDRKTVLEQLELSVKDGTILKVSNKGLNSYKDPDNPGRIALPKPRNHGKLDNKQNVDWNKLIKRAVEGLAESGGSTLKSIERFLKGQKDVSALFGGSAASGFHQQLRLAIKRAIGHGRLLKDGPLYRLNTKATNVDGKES
Sequence,E-score
CCCCCAAA,-0.198
AGTGTCAG,-0.122
AAGGCCTG,-0.0542
CAGGAGTC,-0.126
AATAACGT,0.0114
CTACCGAG,0.104
ATAGCACA,0.00122
CCCGCTGC,0.192
CTAATCTC,-0.159
CCTGACAC,-0.115
TCCTTCCA,-0.311
ACACAGTG,-0.098
TAAGGTGA,-0.0872
ATTGCGTG,0.125
GTTACTAA,-0.00963
TACAGCAA,-0.00547
AATACTAT,-0.0832

# Set 3 — technique: protein-binding microarray; molecule type: double-stranded DNA, one strand shown; sample: in vitro; tested at: 940 nM top; setting: 60-bp whole probe; with: salmon DNA 0.4 mg/ml; relative to: random background probes; reading: higher = stronger binding; all sequences stand within: GCCTAGCAC … GTCTTGATTCGCTTGACGCTGCTG
# Target: Interferon regulatory factor 5, full length, phosphomimetic (IRF5, Homo sapiens, UniProt Q13568-2, residues 1-514, S451D/S453D/S456D/S462D)
Sequence,fitted relative affinity [z-score]
TTAGGTATCCTTTTCTTTTAGTGCTAG,1.02
GACGATTTCAGTTTCTAGACGTGCTAG,2.08
GTCGATATCAGTCTCGAGACGTGCTAG,2.15
TTAGACATCAGACTGGATTAGTGCTAG,-0.614
TTAGGTATCGGTTCCGGTTAGTGCTAG,10.3
TCACTCTTCTTTTGCTAACTGTGCTAG,1.61
AACGGTTTCGGGTATCGGGACGTGCTA,9.28
GACGATGTCAGACTGGAGACGTGCTAG,-0.345
GACGGTCTCCTCCTGCTGACGTGCTAG,0.257
TTAGCTATCAGTCTCGATTAGTGCTAG,2.69
TCCATGCTGGCTTTTATGCGGTGCTAG,-0.795
TCAGGTTTCCAATCAGCACTGTGCTAG,0.657
TAAGGTCTCGGTATCGGTTAGTGCTAG,6.3
GACGATATCGGGTACCGAGACGTGCTA,-0.175
TTAGGTATCGATATCGGTTAGTGCTAG,9.77
TTAGAACTAGGGTTTCGATTAGTGCTA,3.43
TTAGGTTTCGGGTATCGGGTAGTGCTA,11.1
TTAGATTTCGGGTTTCGATGAGTGCTA,4.52
TTAGGTTTCCTTTCCGTTTAGTGCTAG,2.13
GACGGTTCCGGTTTCGGGGCGTGCTAG,5.24
GACGGACTGGACTTCCGGGACGTGCTA,-0.428
GACGGACTGGGGACTGGGGAGGTGCTA,-0.183
TTCTTTTCCATTTTGTGTTTGTGCTAG,2
TTTTTTTTTTTTTTACTTCGGTGCTAG,1.39
GACGGAATCGGACTGGGGACGTGCTAG,-0.386

# Set 4 — technique: RNA Bind-n-Seq; molecule type: RNA; sample: in vitro; tested at: 365 nM; relative to: no-protein control; reading: higher = stronger binding
# Target: RNA binding protein fox-1 homolog 2, RRM domain, GST-SBP tag (RBFOX2, Homo sapiens, UniProt O43251-10, residues 100-194)
# Setting: natural RNA segment, single round, ends assumed
# All sequences stand within: GGGAGUUCUACAGUCCGACGAUC … UGGAAUUCUCGGGUGCCAA
# Residues (chain): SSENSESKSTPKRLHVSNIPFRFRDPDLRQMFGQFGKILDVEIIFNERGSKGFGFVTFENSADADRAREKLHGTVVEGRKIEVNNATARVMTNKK
Sequence,RBNS enrichment (R)
CAUGAAGCCUUGCUGAACUAAGUUUUGUGUGUAUAUAUUUAAAAAAAAAAUCAGUGUUUAAAUAAAGACCUAUGUACUUAAUCCUUUAACUCUGCGGAUAGCAUUUGGUA,1.81
CUGGGACGGCAGGAAGGUGGGAUGGGCGGGAGACGUUGGCACUCACCUGGUCGGUGCACCAGUACCAGGUGGCCAUGAUGGUCAGGCCAAAGGUCAUCCCGGUCCACGGC,0.453
UUAUAGCACCAUGAGAGCUACAGUACUCUUGAAUUCUAGAGAUAGGUUUUGGUAAAUGUGAACUUGUUUCUAGGUUAACAGUCAAGGAGAGGGACAUGAAUCGUGCAUGU,6.47
UGGUUAUCUGUGAAAGUUGCACAGCGUGGCUUUUCCUAAACUGGUGUUUUUCCCCCGCAUUUGGUGGAUUUUUUAUUAUUAUUCAAAAACAUAACUGAGUUUUUUAAAAG,0.658
GCAGGAAAAUUUGAAAGGGUUUGAAAUGCCCUGAAAUCAGGGCAAGUACUUAAUGGGGAAAAAAAAGCAGAAAUGUCAACAUUUGACCAAAUUAACACUACCUCCUCCCC,0.426
GGUGGUCAACUACCUGUGCAAUAUUUAUGUCUUGAAAACCAGAUCUGAGUAUGCAUUGAACAGUGGGGAUAUUAUAAACAGAAGCGCCUCUCUGAAGAACCCGGUUUCCG,0.178
GCCCUACUUCCGCUCGAUGCUGCCAAUGUCACCAACAGCAAUGGGGCCCACCAUCAGCCUGGACCUGGACGUGGAUGAUGUGGAGAUGGAGAACUAUGAGGCCCUCCUGA,0.464
GGCAGCAGCUUCUUCGAGAAGGAUGGGGCUCCCUUUUGCCCCGAGUGCUACUUUGAGCGCUUCUCCCCACGAUGUGGCUUCUGUAACCAACCCAUCCGACACGAAAUGGU,0.211
CCCCUGGUGGCCGUGCCAACAUCACCAGCCUGGGCUAAAGCCCCUAGGCCUGCAGGCCACUUGGGGAUGGGGGAUGGGACACCUGAGGACAUUCUGAGACUUCCUUUCUU,0.208
AUACCCACCGCCCAGCUUCUCCCUGAGGGCCCACCAGCCUGUGCUGCAUACCCACCGCCCAGCUUCUCCCUGAGGGCCCACCAGCCUGUGCUGUACACCCCGUUAGUCCC,1.11
AUCCCUUUAUACAAAGAAAAUAAAAGUAAGGCAUAUAAAUUUCCUCCAGCAAGCAAAUCUUGUGGGUAAAAAAAAAAAUGUGAAUUUUAACAACCUCUAUAUUUUCACUG,0.589
AACUGACAGGCCUUCCUUCACGUGGGGUCUCAGUGGUGGCCUACCAUGACAGCUUGGUCAGUGUGCCUAGGCAGGGCACAUUGCCUGGGCAUGUGUAGAGUGAGUGCCCC,0.411

# Set 5 — technique: universal PBM; molecule type: double-stranded DNA, one strand shown; sample: in vitro; tested at: 600 nM; reading: higher = stronger binding
# Target: Sal-like protein 4, full length isoform A (SALL4, Homo sapiens, UniProt Q9UJQ4, residues 1-1053)
# Chain of UniProt Q9UJQ4 (whole entry, looked up): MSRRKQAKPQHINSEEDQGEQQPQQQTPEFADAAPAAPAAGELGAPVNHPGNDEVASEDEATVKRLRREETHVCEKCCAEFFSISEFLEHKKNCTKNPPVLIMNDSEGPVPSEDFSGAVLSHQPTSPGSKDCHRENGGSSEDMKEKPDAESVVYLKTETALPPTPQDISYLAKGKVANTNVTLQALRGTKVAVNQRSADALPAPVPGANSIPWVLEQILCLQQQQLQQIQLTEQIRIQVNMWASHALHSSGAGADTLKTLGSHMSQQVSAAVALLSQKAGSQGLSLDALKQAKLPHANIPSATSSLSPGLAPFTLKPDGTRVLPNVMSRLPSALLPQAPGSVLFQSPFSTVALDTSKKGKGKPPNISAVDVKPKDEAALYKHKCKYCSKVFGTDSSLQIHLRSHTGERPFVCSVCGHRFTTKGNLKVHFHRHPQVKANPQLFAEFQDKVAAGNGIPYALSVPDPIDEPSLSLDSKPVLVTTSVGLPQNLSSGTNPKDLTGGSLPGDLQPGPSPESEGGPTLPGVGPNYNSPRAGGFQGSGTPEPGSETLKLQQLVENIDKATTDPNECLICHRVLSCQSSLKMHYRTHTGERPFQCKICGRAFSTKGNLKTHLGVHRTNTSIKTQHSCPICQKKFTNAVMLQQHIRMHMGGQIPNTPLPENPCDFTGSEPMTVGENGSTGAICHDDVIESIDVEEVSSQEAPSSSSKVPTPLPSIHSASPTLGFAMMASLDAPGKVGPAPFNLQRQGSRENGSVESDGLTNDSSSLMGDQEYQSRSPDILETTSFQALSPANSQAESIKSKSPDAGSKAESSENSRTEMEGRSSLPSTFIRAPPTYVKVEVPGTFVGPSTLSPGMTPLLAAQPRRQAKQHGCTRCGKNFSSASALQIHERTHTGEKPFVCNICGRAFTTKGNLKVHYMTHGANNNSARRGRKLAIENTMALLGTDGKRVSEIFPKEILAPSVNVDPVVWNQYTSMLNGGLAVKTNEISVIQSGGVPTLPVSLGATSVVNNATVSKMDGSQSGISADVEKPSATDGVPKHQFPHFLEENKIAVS
# Setting: 8-mer, flanks averaged, mean of replicates
Sequence,E-score
CTATCATA,0.275
CATTAGCC,-0.0393
AACCCCAT,-0.0364
AGGGTGAG,-0.174
AAACACTA,0.294
AGCTCAAG,-0.122
ATGGGTAA,0.175
ACTGTGAG,-0.0158
ATGCCTCC,-0.12
AACAATCG,0.0529
ATTCCCGC,0.0236
CATGGGAA,-0.0177
AATTACGT,0.147
AAAGCCAG,-0.155
AGTGTGTA,0.0808
ACCCTCTG,-0.208
CTGTACCA,-0.124

# Repeated from above (set 2):
Sequence,E-score
CTACCGAG,0.104
ATAGCACA,0.00122
CCCGCTGC,0.192
CTAATCTC,-0.159
CCTGACAC,-0.115
TCCTTCCA,-0.311
ACACAGTG,-0.098
TAAGGTGA,-0.0872
ATTGCGTG,0.125
